Results of several laboratories.
Each numbered part is a random draw from the data of one study; scales do not carry over between parts. Values joined by “and” are separate records of one study, mostly repeats; a detail may differ.
Chain of UniProt P07949 (whole entry, unmodified, looked up): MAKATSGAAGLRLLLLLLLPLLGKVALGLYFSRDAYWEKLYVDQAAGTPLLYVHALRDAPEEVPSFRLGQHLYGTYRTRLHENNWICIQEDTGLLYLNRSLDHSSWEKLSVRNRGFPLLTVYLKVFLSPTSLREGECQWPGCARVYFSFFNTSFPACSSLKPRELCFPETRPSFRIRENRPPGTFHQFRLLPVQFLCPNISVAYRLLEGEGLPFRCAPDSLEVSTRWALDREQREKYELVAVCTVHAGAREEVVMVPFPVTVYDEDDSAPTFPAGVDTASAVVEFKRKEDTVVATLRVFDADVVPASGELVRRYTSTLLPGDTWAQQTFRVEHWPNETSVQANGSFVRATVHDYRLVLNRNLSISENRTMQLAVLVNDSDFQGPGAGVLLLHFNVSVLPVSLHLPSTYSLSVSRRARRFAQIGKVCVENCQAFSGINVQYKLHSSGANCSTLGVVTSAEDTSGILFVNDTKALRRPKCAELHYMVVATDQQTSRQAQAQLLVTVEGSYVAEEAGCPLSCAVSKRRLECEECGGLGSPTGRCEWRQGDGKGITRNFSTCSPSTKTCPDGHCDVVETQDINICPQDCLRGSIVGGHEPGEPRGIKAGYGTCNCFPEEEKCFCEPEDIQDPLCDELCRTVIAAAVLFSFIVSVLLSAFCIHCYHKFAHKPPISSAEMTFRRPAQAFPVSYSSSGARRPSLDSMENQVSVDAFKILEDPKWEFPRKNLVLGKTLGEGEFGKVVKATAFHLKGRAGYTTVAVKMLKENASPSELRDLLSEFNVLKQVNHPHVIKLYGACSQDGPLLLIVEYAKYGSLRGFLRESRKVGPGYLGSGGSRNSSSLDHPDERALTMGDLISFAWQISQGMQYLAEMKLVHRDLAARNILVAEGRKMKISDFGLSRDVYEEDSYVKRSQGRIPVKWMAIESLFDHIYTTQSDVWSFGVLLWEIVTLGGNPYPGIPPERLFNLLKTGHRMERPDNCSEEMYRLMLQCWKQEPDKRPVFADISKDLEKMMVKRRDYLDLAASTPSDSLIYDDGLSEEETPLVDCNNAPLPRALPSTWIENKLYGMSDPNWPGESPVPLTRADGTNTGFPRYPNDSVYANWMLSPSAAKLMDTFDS
Chain of UniProt Q9HBY8 (whole entry, looked up): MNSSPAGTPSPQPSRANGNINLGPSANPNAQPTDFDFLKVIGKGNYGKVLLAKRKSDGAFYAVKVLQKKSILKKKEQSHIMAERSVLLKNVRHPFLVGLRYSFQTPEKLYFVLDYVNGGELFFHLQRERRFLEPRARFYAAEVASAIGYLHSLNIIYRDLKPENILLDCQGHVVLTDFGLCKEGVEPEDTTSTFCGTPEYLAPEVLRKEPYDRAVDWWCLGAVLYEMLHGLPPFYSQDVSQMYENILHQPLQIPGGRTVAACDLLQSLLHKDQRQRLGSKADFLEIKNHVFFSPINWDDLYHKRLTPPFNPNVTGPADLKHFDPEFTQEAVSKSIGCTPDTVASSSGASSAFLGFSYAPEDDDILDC
Chain of UniProt Q13153 (whole entry, looked up): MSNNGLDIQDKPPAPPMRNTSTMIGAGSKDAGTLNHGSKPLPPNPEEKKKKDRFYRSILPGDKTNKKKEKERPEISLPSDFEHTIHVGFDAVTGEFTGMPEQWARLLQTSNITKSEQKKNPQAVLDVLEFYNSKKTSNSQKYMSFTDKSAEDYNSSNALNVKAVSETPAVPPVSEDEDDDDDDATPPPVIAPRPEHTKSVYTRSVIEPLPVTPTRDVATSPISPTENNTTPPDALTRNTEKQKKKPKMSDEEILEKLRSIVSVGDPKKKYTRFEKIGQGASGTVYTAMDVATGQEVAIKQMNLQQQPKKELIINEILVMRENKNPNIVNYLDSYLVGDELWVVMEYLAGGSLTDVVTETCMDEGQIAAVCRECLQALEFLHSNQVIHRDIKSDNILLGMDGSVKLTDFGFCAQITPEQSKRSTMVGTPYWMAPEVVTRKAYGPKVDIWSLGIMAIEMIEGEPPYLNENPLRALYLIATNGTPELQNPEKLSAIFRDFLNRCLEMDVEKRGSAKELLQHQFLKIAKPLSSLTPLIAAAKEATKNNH
Chain of UniProt Q8NEB9 (whole entry, looked up): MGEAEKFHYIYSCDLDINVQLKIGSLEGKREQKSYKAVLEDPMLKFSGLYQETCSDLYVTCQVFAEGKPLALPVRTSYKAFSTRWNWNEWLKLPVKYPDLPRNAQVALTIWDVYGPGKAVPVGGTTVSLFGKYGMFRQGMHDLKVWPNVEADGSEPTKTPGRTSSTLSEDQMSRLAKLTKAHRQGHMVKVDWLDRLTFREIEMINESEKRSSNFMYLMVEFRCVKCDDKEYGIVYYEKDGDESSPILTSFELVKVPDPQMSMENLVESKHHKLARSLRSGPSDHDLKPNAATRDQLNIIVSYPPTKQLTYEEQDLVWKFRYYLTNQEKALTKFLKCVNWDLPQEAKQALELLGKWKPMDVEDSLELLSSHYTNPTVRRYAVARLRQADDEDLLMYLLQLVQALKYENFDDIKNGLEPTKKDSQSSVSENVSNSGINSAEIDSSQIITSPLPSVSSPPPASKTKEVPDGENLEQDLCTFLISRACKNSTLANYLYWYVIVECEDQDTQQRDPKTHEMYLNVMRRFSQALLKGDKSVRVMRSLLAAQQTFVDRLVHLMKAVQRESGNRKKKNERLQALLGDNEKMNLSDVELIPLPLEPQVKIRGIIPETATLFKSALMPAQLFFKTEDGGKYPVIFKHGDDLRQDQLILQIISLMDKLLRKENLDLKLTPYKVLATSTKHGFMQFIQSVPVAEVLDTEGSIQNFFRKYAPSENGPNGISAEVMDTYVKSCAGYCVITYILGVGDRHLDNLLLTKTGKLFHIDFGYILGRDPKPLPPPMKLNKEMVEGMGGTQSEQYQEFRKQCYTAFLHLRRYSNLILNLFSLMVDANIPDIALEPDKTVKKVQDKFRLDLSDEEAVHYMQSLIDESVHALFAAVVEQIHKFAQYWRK
Chain of UniProt Q9BUB5 (whole entry, looked up): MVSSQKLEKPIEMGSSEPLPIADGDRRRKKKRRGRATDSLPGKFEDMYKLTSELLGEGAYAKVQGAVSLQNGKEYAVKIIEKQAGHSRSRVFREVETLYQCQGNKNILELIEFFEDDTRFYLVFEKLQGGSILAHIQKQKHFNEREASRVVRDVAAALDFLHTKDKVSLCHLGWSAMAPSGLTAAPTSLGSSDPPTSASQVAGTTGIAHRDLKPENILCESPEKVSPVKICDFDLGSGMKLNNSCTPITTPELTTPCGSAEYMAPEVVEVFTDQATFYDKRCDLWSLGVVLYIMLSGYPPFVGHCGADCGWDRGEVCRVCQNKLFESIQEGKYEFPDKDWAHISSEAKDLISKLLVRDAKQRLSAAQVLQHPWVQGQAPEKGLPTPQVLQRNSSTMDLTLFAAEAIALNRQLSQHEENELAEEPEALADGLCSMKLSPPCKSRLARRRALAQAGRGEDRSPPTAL
Chain of UniProt P34947 (whole entry, looked up): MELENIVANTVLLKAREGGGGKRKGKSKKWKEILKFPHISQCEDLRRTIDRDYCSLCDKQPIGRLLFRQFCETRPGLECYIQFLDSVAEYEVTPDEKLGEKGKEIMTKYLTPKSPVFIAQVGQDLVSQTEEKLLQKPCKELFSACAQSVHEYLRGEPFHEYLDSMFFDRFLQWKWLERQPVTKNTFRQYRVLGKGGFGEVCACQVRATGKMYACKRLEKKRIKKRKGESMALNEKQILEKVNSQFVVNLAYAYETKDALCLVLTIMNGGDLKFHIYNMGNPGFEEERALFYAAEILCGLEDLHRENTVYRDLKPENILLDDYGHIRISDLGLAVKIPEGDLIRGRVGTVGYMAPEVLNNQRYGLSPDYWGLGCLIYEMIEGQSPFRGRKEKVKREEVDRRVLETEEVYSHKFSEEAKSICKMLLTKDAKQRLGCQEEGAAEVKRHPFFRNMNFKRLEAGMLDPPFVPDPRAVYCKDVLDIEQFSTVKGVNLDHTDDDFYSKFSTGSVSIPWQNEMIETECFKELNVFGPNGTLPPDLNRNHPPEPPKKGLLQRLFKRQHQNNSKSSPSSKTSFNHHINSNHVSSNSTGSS

Study 1
Target: Mitogen-activated protein kinase kinase kinase 7 (MAP3K7, Homo sapiens, UniProt O43318)
Effect on: enzyme activity
Action: inhibitor
Concentration: 0.5 µM
Reference: control
Residues (O43318 1-606): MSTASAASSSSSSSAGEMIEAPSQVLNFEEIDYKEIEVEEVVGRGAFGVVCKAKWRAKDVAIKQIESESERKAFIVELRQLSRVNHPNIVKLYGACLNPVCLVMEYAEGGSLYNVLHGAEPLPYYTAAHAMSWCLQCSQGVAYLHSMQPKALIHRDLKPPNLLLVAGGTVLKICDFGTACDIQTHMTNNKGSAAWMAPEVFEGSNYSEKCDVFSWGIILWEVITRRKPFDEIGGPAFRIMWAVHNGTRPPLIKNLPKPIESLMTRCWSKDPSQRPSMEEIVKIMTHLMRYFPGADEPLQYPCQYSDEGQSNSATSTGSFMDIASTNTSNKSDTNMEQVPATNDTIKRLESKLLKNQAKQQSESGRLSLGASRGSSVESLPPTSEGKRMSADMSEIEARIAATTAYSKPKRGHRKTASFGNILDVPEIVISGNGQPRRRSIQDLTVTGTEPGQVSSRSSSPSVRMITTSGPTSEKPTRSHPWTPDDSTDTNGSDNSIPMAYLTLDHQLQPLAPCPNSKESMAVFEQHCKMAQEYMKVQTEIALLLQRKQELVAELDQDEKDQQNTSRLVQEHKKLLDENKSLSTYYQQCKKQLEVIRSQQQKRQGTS
With `O=Nc1c(-c2c(O)[nH]c3cc(Br)ccc23)[nH]c2ccccc12` the remaining activity was 79.3%.
`O=c1cc(N2CCOCC2)oc2c(-c3ccccc3)cccc12` gave a remaining activity of 85.4%.
The remaining activity of `O=C1NC(=O)c2c1c1c3ccccc3[nH]c1c1[nH]c3cc(Br)ccc3c21` is reported as 91.4%.
For `COc1cccc(-c2cc(=O)c3ccccc3o2)c1N`, the remaining activity was 98.7%.
`O=C1NC(=O)c2c1c1c3ccccc3[nH]c1n1cncc21` has a remaining activity of 63.4%.
With `c1ccc2c(-c3ccncc3)c[nH]c2c1` the remaining activity was 95.5%.
`COc1ccc(COc2ccc(Cc3cnc(N)nc3N)cc2OC)cc1` gave a remaining activity of 97.9%.
`CN(C)S(=O)(=O)c1ccc2c(c1)/C(=C/c1cc3c([nH]1)CCCC3)C(=O)N2` has a remaining activity of 89%.
For `O=C1Nc2ccc(Br)cc2/C1=C/c1cc2c([nH]1)CCCC2`, the remaining activity was 60.9%.
`N#Cc1cnc2cnc(NCc3cccnc3)cc2c1Nc1ccc(F)c(Cl)c1` gave a remaining activity of 89.5%.
For `COc1ccc2c(c1)c(C1=C(c3c[nH]c4ccccc34)C(=O)NC1=O)cn2CCCN(C)C`, the remaining activity was 102%.
For `CCCCc1c(-c2ccc(OC)cc2)[nH]c2nccnc12`, the remaining activity was 90.6%.
For `Oc1cccc(-c2nc(N3CCOCC3)c3oc4ncccc4c3n2)c1`, the remaining activity was 97.4%.
With `O=C1Cc2c([nH]c3ccc(Br)cc23)-c2ccccc2N1` the remaining activity was 84.2%.
For `Cc1cc(Nc2cc(N3CCN(C)CC3)nc(Sc3ccc(NC(=O)C4CC4)cc3)n2)[nH]n1`, the remaining activity was 90.7%.
For `O=C1Nc2ccccc2/C1=C\c1c(Cl)[nH]c2ccccc12`, the remaining activity was 99.2%.
`Cc1ccc(S(=O)(=O)/C=C/C#N)cc1` gave a remaining activity of 99.9%.
`O=C(c1cc2cc(O)ccc2[nH]1)c1cc2cc(O)ccc2[nH]1` has a remaining activity of 79.5%.
With `CCCNC(=O)Nc1ccc(Oc2ncnc3cc(OC)c(OC)cc23)cc1Cl` the remaining activity was 103%.
`CN1CCN(c2ccc3nc(-c4c(N)c5c(F)cccc5[nH]c4=O)[nH]c3c2)CC1` has a remaining activity of 19.3%.
`c1ccc(-c2n[nH]c3c2oc2ccccc23)cc1` gave a remaining activity of 104%.

Study 2
Compound: O=C(Nc1cnn(-c2csc(C(=O)NC3COC3)c2)c1)Nc1ccccc1Cl
Effect on: enzyme activity
Concentration: 5 µM
For RPS6KA3 (Homo sapiens, UniProt P51812); reference: untreated control: remaining activity read 95.1%.
MAP3K21 (Homo sapiens, UniProt Q5TCX8); reference: untreated control — remaining activity: 92.5%.
HIPK3 (Homo sapiens, UniProt Q9H422); reference: untreated control — remaining activity: 96.9%.
It gave 102% for remaining activity (Cyclin-dependent kinase 2, with cyclin E2 (CDK2, Homo sapiens, UniProt P24941); reference: untreated control).
It gave 102% for remaining activity (PRKACG (Homo sapiens, UniProt P22612); reference: untreated control).
The remaining activity was 95.5% (RET (Homo sapiens, UniProt P07949); reference: untreated control).
For JAK3 (Homo sapiens, UniProt P52333); reference: untreated control: remaining activity read 100%.
For GRK5 (Homo sapiens, UniProt P34947); reference: untreated control: remaining activity read 97.9%.
For LTK (Homo sapiens, UniProt P29376); inhibitor: remaining activity read 99.2%.
It gave 101% for remaining activity (ERBB2 (Homo sapiens, UniProt P04626); reference: untreated control).

Study 3
SMILES: Cc1noc([C@H]2C[C@@H](c3ccc(C(F)(F)F)cc3)CN(C(=O)N3CCS(=O)(=O)C3)C2)n1
Method: competition with immobilised ligand
Concentration: 1 µM
The remaining binding was 82% (NEK4 (Homo sapiens, UniProt P51957); cell-free assay).
The remaining binding was 100% (RET (Homo sapiens, UniProt P07949, M918T); cell-free assay).
It gave 100% for remaining binding (NEK6 (Homo sapiens, UniProt Q9HC98); cell-free assay).
For Aurora kinase A (AURKA, Homo sapiens, UniProt O14965); cell-free assay: remaining binding read 85%.
FLT3 (Homo sapiens, UniProt P36888, D835V); cell-free assay — remaining binding: 91%.
It gave 100% for remaining binding (Myosin-IIIb (MYO3B, Homo sapiens, UniProt Q8WXR4); binding).
For IRAK3 (Homo sapiens, UniProt Q9Y616); cell-free assay: remaining binding read 100%.
For RIPK4 (Homo sapiens, UniProt P57078); cell-free assay: remaining binding read 68%.
PIK3C3 (Homo sapiens, UniProt Q8NEB9); cell-free assay — remaining binding: 90%.
It gave 99% for remaining binding (MKNK1 (Homo sapiens, UniProt Q9BUB5); cell-free assay).
For SGK2 (Homo sapiens, UniProt Q9HBY8); cell-free assay: remaining binding read 100%.
The remaining binding was 95% (STK39 (Homo sapiens, UniProt Q9UEW8); cell-free assay).
For PAK1 (Homo sapiens, UniProt Q13153); cell-free assay: remaining binding read 79%.
CLK2 (Homo sapiens, UniProt P49760); cell-free assay — remaining binding: 100%.
Tyrosine-protein kinase ABL1, phosphorylated (ABL1, Homo sapiens, UniProt P00519, Y253F); cell-free assay — remaining binding: 100%.
CAMK2D (Homo sapiens, UniProt Q13557); cell-free assay — remaining binding: 100%.
For MAPKAPK5 (Homo sapiens, UniProt Q8IW41); cell-free assay: remaining binding read 100%.

Study 4
Structure (SMILES): C=CCc1ccc(O)c(-c2ccc(O)c(CC=C)c2)c1
Target: Anoctamin-1 (ANO1, Homo sapiens, UniProt Q5XXA6, del476-501)
Chain of UniProt Q5XXA6 (whole entry, unmodified, looked up): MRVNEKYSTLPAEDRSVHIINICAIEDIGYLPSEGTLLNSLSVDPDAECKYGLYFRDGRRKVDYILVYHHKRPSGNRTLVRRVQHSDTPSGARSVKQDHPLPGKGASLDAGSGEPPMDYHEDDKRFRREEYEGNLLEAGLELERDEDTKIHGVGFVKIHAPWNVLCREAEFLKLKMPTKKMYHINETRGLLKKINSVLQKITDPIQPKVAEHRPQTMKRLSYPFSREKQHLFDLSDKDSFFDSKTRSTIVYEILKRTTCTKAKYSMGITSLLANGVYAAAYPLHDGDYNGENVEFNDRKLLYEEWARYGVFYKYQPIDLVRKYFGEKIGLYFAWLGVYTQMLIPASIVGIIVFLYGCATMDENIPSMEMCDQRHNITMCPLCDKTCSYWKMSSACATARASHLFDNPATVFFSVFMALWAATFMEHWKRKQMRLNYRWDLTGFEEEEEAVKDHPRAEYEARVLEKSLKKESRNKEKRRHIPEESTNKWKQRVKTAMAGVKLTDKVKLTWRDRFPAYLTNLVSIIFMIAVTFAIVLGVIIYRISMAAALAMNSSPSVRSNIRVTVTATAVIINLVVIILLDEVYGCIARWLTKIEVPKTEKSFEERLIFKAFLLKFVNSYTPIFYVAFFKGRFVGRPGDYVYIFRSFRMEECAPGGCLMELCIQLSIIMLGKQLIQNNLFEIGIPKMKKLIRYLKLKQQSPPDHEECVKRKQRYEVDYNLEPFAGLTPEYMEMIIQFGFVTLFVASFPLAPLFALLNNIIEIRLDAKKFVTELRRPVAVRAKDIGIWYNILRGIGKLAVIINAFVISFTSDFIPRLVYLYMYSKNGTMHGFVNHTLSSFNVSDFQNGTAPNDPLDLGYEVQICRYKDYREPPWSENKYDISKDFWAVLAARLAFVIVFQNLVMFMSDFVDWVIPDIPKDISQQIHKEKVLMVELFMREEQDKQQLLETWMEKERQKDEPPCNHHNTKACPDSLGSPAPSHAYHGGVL
Effect on: chloride current
Method: whole-cell patch clamp
10 µM, 60 mV, 300 nM free Ca2+ — normalised current: 0.123 and 0.117.
For 3 µM, 80 mV, 300 nM free Ca2+: normalised current read 0.425 and 0.447.
The normalised current was 0.0173 and 0.0182 (30 µM, 40 mV, 300 nM free Ca2+).
It gave 0.132 for normalised current (30 µM, 100 mV, 300 nM free Ca2+, together with: honokiol and magnolol 10 µM).
For 1 µM, 60 mV, 300 nM free Ca2+, together with: honokiol and magnolol 10 µM: normalised current read 0.277.
1 µM, 80 mV, 300 nM free Ca2+, together with: honokiol and magnolol 10 µM — normalised current: 0.451.
For 3 µM, 80 mV, 300 nM free Ca2+, together with: honokiol and magnolol 10 µM: normalised current read 0.267.
The normalised current was -0.0002 (30 µM, 0 mV, 300 nM free Ca2+).
The normalised current was -0.0662 (1 µM, -40 mV, 300 nM free Ca2+, together with: honokiol and magnolol 10 µM).
For 30 µM, -20 mV, 300 nM free Ca2+, together with: honokiol and magnolol 10 µM: normalised current read -0.0025.
The normalised current was -0.0247 (3 µM, -40 mV, 300 nM free Ca2+, together with: honokiol and magnolol 10 µM).
The normalised current was 0.0136 (30 µM, 40 mV, 300 nM free Ca2+, together with: honokiol and magnolol 10 µM).
It gave 0.0738 for normalised current (30 µM, 80 mV, 300 nM free Ca2+, together with: honokiol and magnolol 10 µM).
For 100 µM, 0 mV, 300 nM free Ca2+: normalised current read -0.0004.
The normalised current was 0.0588 and 0.056 (10 µM, 40 mV, 300 nM free Ca2+).
The normalised current was -0.0045 (30 µM, -40 mV, 300 nM free Ca2+, together with: honokiol and magnolol 10 µM).
It gave 0.0067 and 0.0071 for normalised current (30 µM, 20 mV, 300 nM free Ca2+).

Excerpt of the above (study 4):
The normalised current was -0.0662 (1 µM, -40 mV, 300 nM free Ca2+, together with: honokiol and magnolol 10 µM).
For 30 µM, -20 mV, 300 nM free Ca2+, together with: honokiol and magnolol 10 µM: normalised current read -0.0025.
The normalised current was -0.0247 (3 µM, -40 mV, 300 nM free Ca2+, together with: honokiol and magnolol 10 µM).
The normalised current was 0.0136 (30 µM, 40 mV, 300 nM free Ca2+, together with: honokiol and magnolol 10 µM).
